Published values of several laboratories.
Protocols differ between the studies behind these lines. Numbers after ± are the reported error.
Cell line: RAW264.7

CC#CC#C/C=C1/O[C@@]2(CC[C@@H](OC(C)=O)CO2)[C@H](O)[C@H]1OC(C)=O
IC50 (NO release, inhibitor, Griess; LPS-stimulated): 19.5 µM

CC1C(O)CC2(CO)CCC3(C)C(=CCC4C(C)(CCC(=O)O)C(C(C)(O)CO)CCC43C)C2C1C (stereo not shown)
IC50 (NO production, Griess; 24 h, pre-treatment before HMGB1, added: HMGB1 0.5 µg/mL): > 100 µM

C=CCOCO[C@H](C(=O)NC[C@@H]1C[C@@H](OC)C(C)(C)[C@@H](C[C@@H](COC)OC)O1)[C@@]1(OC)CC(=C)[C@@H](C)[C@@H](C)O1
IC50 (cell viability, sulforhodamine B; 48 h, 37 °C, without H2O2): 1.44 ± 0.483 µM

O=C(COC(=O)c1ccccc1Nc1cccc(C(F)(F)F)c1)Nc1cccc(C(F)(F)F)c1
PGE2 level (ELISA; concentration not given, 24 h, added: LPS 100 ng/mL): 171 ± 5.61 pg/mL

CC#CC#C/C=C1/O[C@@]2(CCCCO2)[C@@H](O)[C@@H]1OC(C)=O
COX-2 protein level (Western blot; concentration not given, added: LPS): decreased

CC(C)(O)C1CC[C@]2(C)C(CC=C3[C@@H]4CC(C)(C)[C@@H](O)C[C@]4(C(=O)O)CC[C@]32C)[C@@]1(C)CCC(=O)O (stereo partly shown)
IC50 (NO release, inhibitor, Griess; LPS-stimulated): > 100 µM

C=Cc1c(C)c2cc3nc(c(CC(=O)[O-])c4[n-]c(cc5nc(cc1[n-]2)C(C)=C5CC)c(C)c4C(=O)[O-])C(CCC(=O)[O-])C3C.[Cu+2].[Na+].[Na+].[Na+] (stereo not shown)
colony formation (concentration not given; baseline: untreated): increased

CC#CCC#CCCCC(OC(C)=O)C(=O)NCCCOc1ccc2c(-c3ccccc3C(=O)OCC)c3ccc(=O)cc-3oc2c1 (stereo not shown)
decrease of intensity (cell retention; after four washes): ~4 fold

CC1CCC2(CO)CCC3(C)C(=CCC4C(C)(CCC(=O)O)C(C(C)(O)CO)CC(O)C43C)C2C1C (stereo not shown)
IC50 (NO release, inhibitor, Griess; LPS-stimulated): > 100 µM

CC#CC#C/C=C1/O[C@@]2(CC[C@@H](O)CO2)[C@H](O)[C@H]1OC(C)=O
IC50 (NO release, inhibitor, Griess; LPS-stimulated): > 50 µM

Some of these lines once more:
CC(C)(O)C1CC[C@]2(C)C(CC=C3[C@@H]4CC(C)(C)[C@@H](O)C[C@]4(C(=O)O)CC[C@]32C)[C@@]1(C)CCC(=O)O (stereo partly shown)
IC50 (NO release, inhibitor, Griess; LPS-stimulated): > 100 µM
